Measured values pooled from the literature.
Parts stem from different laboratories: compare values within a part only. Positions count from the first letter of the parent shown.

Study 1
Target: Histone acetyltransferase KAT6A, winged helix 1, GST fusion (KAT6A, Homo sapiens, UniProt Q92794, residues 1-85)
Technique: protein binding microarray
Molecule type: double-stranded DNA, one strand shown
Medium: in vitro
Concentration: not given
Setting: 8-mer, flanks averaged, mean of 2 arrays, mostly near background
Relative to: not given
Direction: higher = stronger binding
Residues (chain): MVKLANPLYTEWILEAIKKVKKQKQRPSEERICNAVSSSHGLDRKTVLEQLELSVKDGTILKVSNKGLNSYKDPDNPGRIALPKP
`GGAACGAA` has an E-score of -0.0318.
`TCCGCGCA` has an E-score of 0.394.
`CGAGTGCC` gave an E-score of 0.156.
`AGAATCAT` has an E-score of -0.357.
`GCGAGCCC` gave an E-score of 0.256.
The E-score of `ATAGGATG` is reported as 0.0225.
`AAGACGGT` has an E-score of -0.123.
`TGAATCCA` has an E-score of -0.234.
`AAGACAGG` has an E-score of -0.141.
For `AAGATTAT`, the E-score was -0.15.
`CGTCTCCA` has an E-score of 0.132.
The E-score of `ACTGAACT` is reported as 0.0583.
The E-score of `CCCGTGAA` is reported as 0.182.
For `CATGAAGC`, the E-score was 0.083.
`GGCAAGGA` gave an E-score of -0.0855.
With `AAGTGGAT` the E-score was -0.159.
`AACGACTA` gave an E-score of -0.0768.
`ATTCGGTC` has an E-score of 0.0122.
`AGCGTGGC` has an E-score of 0.0888.
With `GTCTTCAA` the E-score was -0.213.
`AATAGCGT` gave an E-score of 0.123.
The E-score of `ATCTGTCA` is reported as -0.0856.

Study 2
Target: Centromere-binding protein 1, full length, His-tagged (CBF1, Saccharomyces cerevisiae, UniProt P17106, residues 1-351)
UniProt P17106, sequence (whole entry, looked up): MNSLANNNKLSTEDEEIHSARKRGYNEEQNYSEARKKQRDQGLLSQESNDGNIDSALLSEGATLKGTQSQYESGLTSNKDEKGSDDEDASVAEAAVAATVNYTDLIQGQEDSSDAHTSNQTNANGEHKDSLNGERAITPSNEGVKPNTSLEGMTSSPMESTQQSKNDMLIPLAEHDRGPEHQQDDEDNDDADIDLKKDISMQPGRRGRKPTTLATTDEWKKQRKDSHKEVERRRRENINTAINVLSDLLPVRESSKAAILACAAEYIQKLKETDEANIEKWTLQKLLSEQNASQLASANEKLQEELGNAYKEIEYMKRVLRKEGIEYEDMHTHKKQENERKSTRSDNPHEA
Technique: competition protein-binding microarray
Molecule type: double-stranded DNA, one strand shown
Medium: in vitro
Concentration: 2 µM
Setting: whole 60-bp probe, lowest competitor level
Together with: Pho4 competitor, 0.05 µM
Direction: higher = stronger binding
The fluorescence intensity of `CATACCCAACCTTGTCACGGAACTTAAGATATTTGTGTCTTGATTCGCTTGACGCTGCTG` is reported as 102 a.u.
For `TTCATTTGTCACCGTCACGTGATGGCATTTAAGTACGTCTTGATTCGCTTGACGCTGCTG`, the fluorescence intensity was 13300 a.u.
With `GAGTAAAGATGTTAGCACGTGATGGGCTGCAGAGGTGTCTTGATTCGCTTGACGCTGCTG` the fluorescence intensity was 3810 a.u.
For `ACCGCGCGATTATTTAGTGTGACGGGAGCAAAGTAGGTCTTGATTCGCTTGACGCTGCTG`, the fluorescence intensity was 94.7 a.u.
With `CATACCCAACCTTGTCACCAAACTTAAGATATTTGTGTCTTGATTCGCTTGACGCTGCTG` the fluorescence intensity was 90.4 a.u.
For `CTTTCCCGATCTTGGCCAGTGGGTGTAGCACATTTGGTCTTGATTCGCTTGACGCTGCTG`, the fluorescence intensity was 65.3 a.u.
With `ACCCGGGTGTCGTTATGCGTGATGGGCATCAATTTTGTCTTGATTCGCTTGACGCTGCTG` the fluorescence intensity was 80.5 a.u.
The fluorescence intensity of `TTATCATATACGGTGTTAGAAGATGACGCAAATGATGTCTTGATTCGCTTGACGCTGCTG` is reported as 87.8 a.u.
With `CTTGCGTTAGCTATTTTCGTGCGATTTGTTTGTTCCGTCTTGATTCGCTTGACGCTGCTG` the fluorescence intensity was 93.3 a.u.
The fluorescence intensity of `AAAGCGGTAATTTGGGCTGTGGGTGCAGATATCTATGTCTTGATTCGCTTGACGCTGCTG` is reported as 73.5 a.u.
With `CGGGGTTAAGTTTGTAGAGTGGGTGGCTTGCAGCAGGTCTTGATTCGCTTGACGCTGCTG` the fluorescence intensity was 61.8 a.u.
For `TGCGCAACAACTTGGATCGTGGGTGTATGTCTAGAAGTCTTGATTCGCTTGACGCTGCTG`, the fluorescence intensity was 78.7 a.u.
With `CTTCTGTAAATTTGCGTTGTGGGTGGACGCGCCCCGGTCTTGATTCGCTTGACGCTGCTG` the fluorescence intensity was 88.1 a.u.
`CACCTCTCGACCCGTCACGTCAAGGTTTGCTGCCTCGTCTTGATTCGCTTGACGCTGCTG` has a fluorescence intensity of 74.3 a.u.
`CACAGCGAAGTATGGCTCGTGACTCGCAAAATCATCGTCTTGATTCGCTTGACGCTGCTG` gave a fluorescence intensity of 854 a.u.
For `GCATTTGTCTTCTTTCATTTGAAATCTTCATAATCTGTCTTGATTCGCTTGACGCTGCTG`, the fluorescence intensity was 88.4 a.u.

Study 3
Target: ABI1, truncated, D143A, DHFR fusion (Arabidopsis thaliana)
Technique: DHFR PCA, deep sequencing
Medium: yeast
Setting: methotrexate growth selection, single substitutions
Together with: (+)-ABA 4.8 µM
Relative to: wild-type fitted maximum
Direction: higher = stronger binding
Starting sequence: PYL1, truncated, DHFR fusion (Arabidopsis thaliana); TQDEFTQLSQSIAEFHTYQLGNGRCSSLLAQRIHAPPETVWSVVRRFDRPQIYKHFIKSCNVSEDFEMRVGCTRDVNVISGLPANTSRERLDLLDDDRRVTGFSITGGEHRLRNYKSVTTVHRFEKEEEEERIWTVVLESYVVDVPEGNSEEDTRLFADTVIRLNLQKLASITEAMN; partner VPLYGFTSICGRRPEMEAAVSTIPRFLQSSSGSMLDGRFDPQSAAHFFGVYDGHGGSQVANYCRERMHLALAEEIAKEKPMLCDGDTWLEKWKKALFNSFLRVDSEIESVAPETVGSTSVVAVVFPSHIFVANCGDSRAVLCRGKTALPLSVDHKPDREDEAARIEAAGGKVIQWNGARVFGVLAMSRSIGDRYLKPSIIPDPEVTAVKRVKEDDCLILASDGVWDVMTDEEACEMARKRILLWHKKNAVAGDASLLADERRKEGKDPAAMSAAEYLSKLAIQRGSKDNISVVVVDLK
`L93A` — result for “relative binding score”: 33.3%.
`T17L`: “relative binding score” 17%.
For `Q31R`, “relative binding score” read 53.5%.
For `I162Q`, “relative binding score” read -13.6%.
`E147W`: “relative binding score” 42.4%.
`L138N`: “relative binding score” -7.61%.
For `E130K`, “relative binding score” read 84.2%.
Under “relative binding score”, `Y53V` is recorded as -6.38%.
`L156G` — result for “relative binding score”: 33.8%.
`V143Y`: “relative binding score” 3.06%.
`L164G` — result for “relative binding score”: 16.1%.
`L138Q`: “relative binding score” -18.4%.
For `N177T`, “relative binding score” read 88.4%.
For `P36K`, “relative binding score” read 60.5%.
`E127Y`: “relative binding score” 64.2%.
`G21S` — result for “relative binding score”: 74.8%.
`S150W`: “relative binding score” -2.57%.
`Y18V` — result for “relative binding score”: 40.1%.
Under “relative binding score”, `T160K` is recorded as 33.1%.
For `C60M`, “relative binding score” read -1.93%.
`F103V`: “relative binding score” -5.59%.
Under “relative binding score”, `G71D` is recorded as -1.34%.
For `S27P`, “relative binding score” read 2.46%.
For `L28N`, “relative binding score” read 7.67%.
For `R69L`, “relative binding score” read 50.5%.

Study 4
Target: Fragile X messenger ribonucleoprotein 1, C-terminal low-complexity region (Fmr1, Mus musculus, UniProt P35922)
Technique: RNA Bind-n-Seq
Molecule type: RNA
Medium: in vitro
Concentration: 200 nM
Setting: whole 134-nt RNA, ends assumed
Together with: 150 mM KCl
Relative to: input library
Direction: higher = stronger binding
`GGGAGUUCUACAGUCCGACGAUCGCAGGAAGUAAAAACAAUUGGAAAUGCUUCGGAUAGUGGCAGGGGUGGGGGUUGCUAAGGAAAGGGUGGGAUGGGAGUGGGUAAAGAGUUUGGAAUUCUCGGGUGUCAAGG` has a log2 enrichment of 0.23.
With `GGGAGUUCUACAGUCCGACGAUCUGGCCCUGGUGGCAUGCGGGGAGGAAGAGGUGGCCUCAUGGAUCGUGGUGGUCCCGGUGGAAUGUUCAGAGGUGGCCGUGCUGGAGACAGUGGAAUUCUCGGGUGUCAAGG` the log2 enrichment was -0.155.
The log2 enrichment of `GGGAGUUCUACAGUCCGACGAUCUCCUGUGCUACACAUCGUAUGUACCGAAUCGGCCCCCCCGGCCCCCCCGGGCCCCCCCGGAAAGUAUUAUGUUACGCCGUUCGGAUCUGCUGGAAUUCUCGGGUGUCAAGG` is reported as 0.287.
`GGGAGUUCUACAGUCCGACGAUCUCCUGUGCUACACAUCGUAUGUACCGAAUCGGGGCCCCCCGGCCCCCCGGGCCCCCCGGAAAGUAUUAUGUUACGCCGUUCGGAUCUGCAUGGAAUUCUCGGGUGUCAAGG` has a log2 enrichment of 0.0395.
`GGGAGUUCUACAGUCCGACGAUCUCCUGUGCUACACAUCGUAUGUACCGAAUCGGGGAGGGGUUUUUGGGGAAAAAAAGGGGAAAGUAUUAUGUUACGCCGUUCGGAUCUGCAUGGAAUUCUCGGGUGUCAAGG` gave a log2 enrichment of 0.656.
`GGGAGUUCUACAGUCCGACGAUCUCAAGUCCUGUGCUACACAUCGUAUGUACCGAAUCGGAAAGGAAAGGAAAGGGGAAAGUAUUAUGUUACGCCGUUCGGAUCUGCACUUCCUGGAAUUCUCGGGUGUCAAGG` gave a log2 enrichment of -0.5.
`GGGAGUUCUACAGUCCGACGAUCCUCAAGUCCUGUGCUACACAUCGUAUGUACCGAAUCGGGCCGGGCCGGGGCCGGAAAGUAUUAUGUUACGCCGUUCGGAUCUGCACUUCCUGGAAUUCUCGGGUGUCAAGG` has a log2 enrichment of 0.0169.
With `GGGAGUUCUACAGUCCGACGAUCACCAUGCAGGUGGGCAUCUUUGGGAAGUGGGGCAAGGGGGGGAUAGGGAGGGGGGUAACACUUGGGGAACAGGUGGUCCCAGGUCGUUUCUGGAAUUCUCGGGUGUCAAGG` the log2 enrichment was 0.755.
`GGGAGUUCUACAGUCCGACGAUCAAGUCCUGUGCUACACAUCGUAUGUACCGAAUCGGGAAAAGGGGAAAAGGAAAAGGGAAAGUAUUAUGUUACGCCGUUCGGAUCUGCACUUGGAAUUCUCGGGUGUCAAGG` has a log2 enrichment of -0.171.
